Results from different studies.
Lines come from different studies, so protocols differ. Values joined by “and” are separate records of one study, mostly repeats; a detail may differ. Numbers after ± are the reported error.
CASP7: Caspase-7 (CASP7, Homo sapiens, UniProt P55210)
UniProt P46089, sequence (whole entry, looked up): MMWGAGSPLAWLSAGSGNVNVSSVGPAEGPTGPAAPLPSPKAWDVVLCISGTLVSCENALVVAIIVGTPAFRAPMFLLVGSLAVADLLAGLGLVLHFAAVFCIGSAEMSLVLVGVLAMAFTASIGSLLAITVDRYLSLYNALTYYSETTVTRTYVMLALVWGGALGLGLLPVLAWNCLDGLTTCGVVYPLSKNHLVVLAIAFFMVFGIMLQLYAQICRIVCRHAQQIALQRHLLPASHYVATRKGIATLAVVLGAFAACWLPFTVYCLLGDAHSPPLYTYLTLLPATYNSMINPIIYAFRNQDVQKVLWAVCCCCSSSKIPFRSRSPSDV
UniProt P50990, sequence (whole entry, looked up): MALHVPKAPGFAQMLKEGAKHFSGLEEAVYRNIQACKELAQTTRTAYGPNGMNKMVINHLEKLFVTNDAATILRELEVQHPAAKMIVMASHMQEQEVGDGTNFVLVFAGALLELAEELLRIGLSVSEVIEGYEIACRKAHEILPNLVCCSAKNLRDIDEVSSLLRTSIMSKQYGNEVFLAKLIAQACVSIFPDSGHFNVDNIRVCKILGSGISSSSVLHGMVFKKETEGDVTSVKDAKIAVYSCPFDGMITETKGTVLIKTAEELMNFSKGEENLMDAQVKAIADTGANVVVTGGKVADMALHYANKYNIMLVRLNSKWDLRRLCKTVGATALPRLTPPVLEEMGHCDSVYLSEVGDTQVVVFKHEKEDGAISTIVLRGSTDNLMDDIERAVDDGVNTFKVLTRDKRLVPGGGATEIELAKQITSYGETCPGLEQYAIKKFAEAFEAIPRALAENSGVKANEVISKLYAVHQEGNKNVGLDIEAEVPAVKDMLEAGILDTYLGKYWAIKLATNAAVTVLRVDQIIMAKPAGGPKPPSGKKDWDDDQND
UniProt P55210, sequence (whole entry, looked up): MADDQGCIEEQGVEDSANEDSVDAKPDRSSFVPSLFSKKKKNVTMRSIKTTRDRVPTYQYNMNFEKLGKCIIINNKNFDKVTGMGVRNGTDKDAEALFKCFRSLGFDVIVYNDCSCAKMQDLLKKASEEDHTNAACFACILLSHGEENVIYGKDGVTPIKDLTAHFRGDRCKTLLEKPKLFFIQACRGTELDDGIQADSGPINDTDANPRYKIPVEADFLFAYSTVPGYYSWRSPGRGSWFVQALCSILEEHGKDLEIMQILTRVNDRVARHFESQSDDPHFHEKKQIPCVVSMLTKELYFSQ
UniProt P19491, sequence (whole entry, looked up): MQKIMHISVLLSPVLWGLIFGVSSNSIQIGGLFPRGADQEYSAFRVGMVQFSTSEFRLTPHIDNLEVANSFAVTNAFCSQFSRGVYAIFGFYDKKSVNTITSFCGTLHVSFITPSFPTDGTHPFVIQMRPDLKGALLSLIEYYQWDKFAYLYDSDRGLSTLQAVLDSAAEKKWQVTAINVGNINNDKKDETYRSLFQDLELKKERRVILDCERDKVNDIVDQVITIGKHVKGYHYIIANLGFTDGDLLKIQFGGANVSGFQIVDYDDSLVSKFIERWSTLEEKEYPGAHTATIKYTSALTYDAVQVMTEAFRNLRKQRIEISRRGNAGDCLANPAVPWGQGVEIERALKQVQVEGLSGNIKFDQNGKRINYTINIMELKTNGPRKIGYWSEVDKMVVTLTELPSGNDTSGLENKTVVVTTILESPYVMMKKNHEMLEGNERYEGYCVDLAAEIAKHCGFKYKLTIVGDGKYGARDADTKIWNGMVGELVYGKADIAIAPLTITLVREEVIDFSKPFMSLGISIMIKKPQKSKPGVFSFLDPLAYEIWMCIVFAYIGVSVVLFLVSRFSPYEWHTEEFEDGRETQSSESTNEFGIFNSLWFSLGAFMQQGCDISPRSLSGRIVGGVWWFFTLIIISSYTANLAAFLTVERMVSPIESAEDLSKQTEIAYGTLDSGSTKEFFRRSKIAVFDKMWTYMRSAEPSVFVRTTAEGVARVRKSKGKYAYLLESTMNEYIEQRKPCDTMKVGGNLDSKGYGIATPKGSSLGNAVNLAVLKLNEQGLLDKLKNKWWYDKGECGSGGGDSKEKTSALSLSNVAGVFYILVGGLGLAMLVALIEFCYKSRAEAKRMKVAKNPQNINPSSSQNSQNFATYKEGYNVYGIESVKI
UniProt Q00987, sequence (whole entry, looked up): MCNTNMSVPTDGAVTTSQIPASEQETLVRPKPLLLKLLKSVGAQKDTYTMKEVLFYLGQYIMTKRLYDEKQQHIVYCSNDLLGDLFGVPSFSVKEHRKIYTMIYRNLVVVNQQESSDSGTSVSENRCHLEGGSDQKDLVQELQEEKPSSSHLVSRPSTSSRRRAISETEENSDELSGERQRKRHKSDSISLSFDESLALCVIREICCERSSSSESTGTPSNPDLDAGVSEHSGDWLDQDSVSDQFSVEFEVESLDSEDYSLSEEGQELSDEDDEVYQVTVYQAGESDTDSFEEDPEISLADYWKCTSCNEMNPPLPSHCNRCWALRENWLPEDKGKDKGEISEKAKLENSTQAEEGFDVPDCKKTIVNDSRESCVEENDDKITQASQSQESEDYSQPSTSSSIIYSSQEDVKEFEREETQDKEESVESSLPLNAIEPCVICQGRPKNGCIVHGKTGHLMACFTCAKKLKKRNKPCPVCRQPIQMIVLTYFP
UniProt P33240, sequence (whole entry, looked up): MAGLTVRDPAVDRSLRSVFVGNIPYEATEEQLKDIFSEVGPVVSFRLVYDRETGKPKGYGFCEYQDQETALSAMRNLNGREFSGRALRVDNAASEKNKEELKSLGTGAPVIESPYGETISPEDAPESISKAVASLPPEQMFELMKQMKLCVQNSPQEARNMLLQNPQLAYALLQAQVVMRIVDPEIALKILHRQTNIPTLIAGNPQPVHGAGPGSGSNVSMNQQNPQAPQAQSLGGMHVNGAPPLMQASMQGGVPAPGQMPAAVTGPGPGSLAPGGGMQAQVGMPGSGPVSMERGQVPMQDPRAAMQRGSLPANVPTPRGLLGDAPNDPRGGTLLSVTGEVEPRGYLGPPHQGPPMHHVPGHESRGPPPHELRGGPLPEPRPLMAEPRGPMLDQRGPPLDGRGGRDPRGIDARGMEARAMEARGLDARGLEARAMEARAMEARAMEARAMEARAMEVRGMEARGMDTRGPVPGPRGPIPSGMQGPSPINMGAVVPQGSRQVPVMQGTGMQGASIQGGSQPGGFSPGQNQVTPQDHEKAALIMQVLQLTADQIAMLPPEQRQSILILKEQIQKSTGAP
UniProt Q86Y97, sequence (whole entry, looked up): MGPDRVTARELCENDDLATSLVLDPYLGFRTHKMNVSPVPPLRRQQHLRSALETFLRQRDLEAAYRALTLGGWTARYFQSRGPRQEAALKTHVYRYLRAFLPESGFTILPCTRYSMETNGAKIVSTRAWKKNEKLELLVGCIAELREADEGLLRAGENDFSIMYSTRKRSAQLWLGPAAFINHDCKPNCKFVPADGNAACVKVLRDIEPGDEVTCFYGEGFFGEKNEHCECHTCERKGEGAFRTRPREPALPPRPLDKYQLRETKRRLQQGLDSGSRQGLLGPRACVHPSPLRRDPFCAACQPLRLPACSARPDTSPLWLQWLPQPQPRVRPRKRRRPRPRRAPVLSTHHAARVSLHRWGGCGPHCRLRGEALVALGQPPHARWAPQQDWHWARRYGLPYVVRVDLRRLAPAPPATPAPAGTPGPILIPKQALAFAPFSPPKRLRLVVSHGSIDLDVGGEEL
UniProt P53396, sequence (whole entry, looked up): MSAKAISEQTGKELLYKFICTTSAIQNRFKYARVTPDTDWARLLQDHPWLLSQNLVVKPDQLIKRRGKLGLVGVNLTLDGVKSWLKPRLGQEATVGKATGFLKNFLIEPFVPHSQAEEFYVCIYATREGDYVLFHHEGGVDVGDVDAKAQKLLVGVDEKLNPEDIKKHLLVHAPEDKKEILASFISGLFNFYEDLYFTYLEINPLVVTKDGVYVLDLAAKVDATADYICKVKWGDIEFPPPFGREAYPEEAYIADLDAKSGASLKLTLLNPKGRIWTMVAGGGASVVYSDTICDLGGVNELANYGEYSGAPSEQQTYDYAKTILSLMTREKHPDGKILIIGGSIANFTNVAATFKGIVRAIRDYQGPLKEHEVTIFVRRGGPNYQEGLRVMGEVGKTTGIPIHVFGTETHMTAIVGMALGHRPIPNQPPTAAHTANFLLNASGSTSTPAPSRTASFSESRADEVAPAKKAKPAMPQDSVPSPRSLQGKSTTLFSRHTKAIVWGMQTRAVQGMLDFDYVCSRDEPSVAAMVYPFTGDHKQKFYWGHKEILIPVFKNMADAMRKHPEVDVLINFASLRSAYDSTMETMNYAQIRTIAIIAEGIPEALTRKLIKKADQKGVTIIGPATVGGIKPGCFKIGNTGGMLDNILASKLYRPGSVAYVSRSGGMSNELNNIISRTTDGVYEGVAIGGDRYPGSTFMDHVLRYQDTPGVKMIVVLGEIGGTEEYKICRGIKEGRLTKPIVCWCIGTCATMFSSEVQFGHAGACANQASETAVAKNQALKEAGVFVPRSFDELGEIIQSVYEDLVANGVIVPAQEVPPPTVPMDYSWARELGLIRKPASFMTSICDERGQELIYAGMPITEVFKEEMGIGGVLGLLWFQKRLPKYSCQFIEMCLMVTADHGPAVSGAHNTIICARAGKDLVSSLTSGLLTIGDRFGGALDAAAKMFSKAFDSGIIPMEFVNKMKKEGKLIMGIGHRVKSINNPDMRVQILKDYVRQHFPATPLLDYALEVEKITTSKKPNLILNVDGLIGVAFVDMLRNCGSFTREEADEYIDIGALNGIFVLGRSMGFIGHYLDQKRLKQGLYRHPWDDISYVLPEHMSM
UniProt P31944, sequence (whole entry, looked up): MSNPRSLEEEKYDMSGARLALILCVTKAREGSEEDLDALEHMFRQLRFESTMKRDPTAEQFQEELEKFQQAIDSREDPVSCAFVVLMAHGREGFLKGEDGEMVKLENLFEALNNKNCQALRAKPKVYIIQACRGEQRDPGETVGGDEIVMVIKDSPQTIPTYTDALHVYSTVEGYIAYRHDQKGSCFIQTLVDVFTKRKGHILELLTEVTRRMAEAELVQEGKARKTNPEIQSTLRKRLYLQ

`CC(=O)N[C@@H](Cc1ccccc1Cl)C(=O)N[C@@H](CCC(=O)O)C(=O)N[C@@H](C)C(=O)N[C@@H](CC(=O)O)C(=O)COC(=O)c1c(C)cccc1C` gave a kinact/KI of 58400 M⁻¹ s⁻¹ (CASP7; enzyme activity, inhibitor).
For `CC(C)Oc1cc(Cl)ccc1CNc1cc(-c2ccccc2)nc2ncnn12`, the cAMP luminescence was 33300 a.u. and 17900 a.u. and 23700 a.u. and 50400 a.u. and 42100 a.u. and 61200 a.u. and 30400 a.u. and 51900 a.u. (G-protein coupled receptor 3 (GPR3, Homo sapiens, UniProt P46089); cAMP reporter; human cells; 100 pM; higher is more cAMP).
With `CCn1cc(-c2cccc(C(F)(F)F)c2)c2sc(C(=N)NC3CCS(=O)(=O)CC3)cc2c1=O` the ΔTm was 1.6 °C (Histone acetyltransferase KAT2B (KAT2B, Homo sapiens, UniProt Q92831)).
Under “desensitization time constant”, `COC(=O)Cc1cc2c(cc1C(=O)c1ccccc1)OCO2` is recorded as 2.6 ± 0.1 ms (Glutamate receptor 2 (Gria2, Rattus norvegicus, UniProt P19491); glutamate-evoked current, whole-cell patch clamp; HEK-293T; concentration not given, weighted tau, 500 ms pulse, with: glutamate).
`CC(C)(C)NC(=O)C(c1c(C(=O)O)[nH]c2cc(Cl)ccc12)N(C=O)Cc1ccc(-c2ccccc2)cc1` (stereo not drawn) has a Ki of 2500 nM (E3 ubiquitin-protein ligase Mdm2 (MDM2, Homo sapiens, UniProt Q00987); fluorescence polarization).
`C[C@](C(=O)NC1CCOCC1)(c1cncnc1)N(C(=O)[C@H](F)Cl)c1ccc(OC(F)(F)Cl)cc1` gave a remaining activity of 99.7% (Caspase-14 (Homo sapiens, UniProt P31944); enzyme activity, inhibitor; 10 µM).
`CCOC(=O)C(CC)(CCCSCCOCCNc1ccc([N+](=O)[O-])c2nonc12)NC(=O)c1ccc(C2CC2)c(Cc2ccc(F)cc2)n1` (stereo not drawn) gave a Ki ratio of 19 (Cannabinoid receptor 2 (CNR2, Homo sapiens, UniProt P34972); radioligand binding; relative to: CB1 over CB2 (human)).
Under “number of kinases hit”, `Cc1cccc(C2(C(=O)Nc3c[nH]nc3-c3ccccc3)CC2)c1` is recorded as 3 (human kinase panel; binding, KINOMEscan; 10000 nM, %Ctrl below 35).
With `N#CN1CC[C@H](C(=O)Nc2nc3c(s2)CN(C(=O)CN=[N+]=[N-])CC3)C1` the spectral count was 2 (ATP-citrate synthase (ACLY, Homo sapiens, UniProt P53396); two-step pull-down LC-MS/MS; HEK293T; click chemistry probe).
With `CN(C)C/C=C/C(=O)Nc1ccc2nc(NCCCCCN(C)C)nc(NCCCCCCN(C)C)c2c1` the inhibition was 79% (Histone-lysine N-methyltransferase KMT5C (KMT5C, Homo sapiens, UniProt Q86Y97); enzyme activity, inhibitor, radiometric; 50 µM).
`CCCCCC=CC=C1C(=O)C=CC1CC=CCCCC(=O)O` (stereo not drawn) — result for “isoTOP-ABPP competition ratio”: 3 (Cleavage stimulation factor subunit 2 (CSTF2, Homo sapiens, UniProt P33240); competitive isoTOP-ABPP, measured: CSTF2 cysteine peptide; proteome, soluble, MDA-MB-231; 100 µM, with: iodoacetamide probe; relative to: DMSO over compound-treated, higher = stronger cysteine blockade).
For `CC(=O)N[C@@H](Cc1ccc(C)cc1)C(=O)N[C@@H](CCCC(=O)O)C(=O)N[C@H](C(=O)N[C@@H](CC(=O)O)C(=O)COC(=O)c1c(C)cccc1C)C(C)(C)C`, the kinact/KI was 9000 M⁻¹ s⁻¹ (CASP7; enzyme activity, inhibitor).
For `O=c1[nH]cnc2c([C@@H]3N[C@H](COP(=O)(O)O)[C@@H](O)[C@H]3O)c[nH]c12`, the Kii was 210 ± 10 nM (Hypoxanthine-guanine phosphoribosyltransferase (Trypanosoma cruzi, UniProt Q4DGA3); inhibitor, inhibition pattern versus hypoxanthine; pH 8.3, 37 °C, with: PRPP 1 mM fixed).
The inhibition of `Cc1onc(-c2ccc(F)cc2)c1C(=O)Nc1cccc(C(N)=O)c1` is reported as 20 ± 11% (Genome polyprotein, NS2B-NS3 protease (dengue virus type 2, UniProt P29990); reporter gene; HeLa; 12.5 µM).
With `C=CC(=O)N1CCCC(n2c(=O)c3ncccc3n(Cc3ccc(Oc4ccccc4)cc3)c2=O)C1` (stereo not drawn) the melting temperature was 51.1 °C and 50.3 °C (T-complex protein 1 subunit theta (CCT8, Homo sapiens, UniProt P50990); thermal proteome profiling; cell proteome; treated).

For quick reference, copied from above:
The inhibition of `Cc1onc(-c2ccc(F)cc2)c1C(=O)Nc1cccc(C(N)=O)c1` is reported as 20 ± 11% (Genome polyprotein, NS2B-NS3 protease (dengue virus type 2, UniProt P29990); reporter gene; HeLa; 12.5 µM).
For `CC(=O)N[C@@H](Cc1ccc(C)cc1)C(=O)N[C@@H](CCCC(=O)O)C(=O)N[C@H](C(=O)N[C@@H](CC(=O)O)C(=O)COC(=O)c1c(C)cccc1C)C(C)(C)C`, the kinact/KI was 9000 M⁻¹ s⁻¹ (CASP7; enzyme activity, inhibitor).
